Experimental data pooled from the literature.
Numbered parts are unrelated; each lists some results of a single study. Changes are numbered by the printed parent chain.

Set 1
Target: ABI1, truncated, D143A, DHFR fusion (Arabidopsis thaliana)
Method: DHFR PCA, deep sequencing
Matrix: yeast
Setting: methotrexate growth selection, single substitutions
With: (+)-ABA 0.0091 µM
Relative to: wild-type fitted maximum
Direction: higher = stronger binding
Quantity: relative binding score
Starting sequence: PYL1, truncated, DHFR fusion (Arabidopsis thaliana); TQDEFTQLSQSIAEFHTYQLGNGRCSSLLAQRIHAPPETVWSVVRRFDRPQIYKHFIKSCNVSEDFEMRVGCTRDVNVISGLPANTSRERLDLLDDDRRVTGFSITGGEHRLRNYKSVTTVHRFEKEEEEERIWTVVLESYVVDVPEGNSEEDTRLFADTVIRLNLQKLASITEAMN; partner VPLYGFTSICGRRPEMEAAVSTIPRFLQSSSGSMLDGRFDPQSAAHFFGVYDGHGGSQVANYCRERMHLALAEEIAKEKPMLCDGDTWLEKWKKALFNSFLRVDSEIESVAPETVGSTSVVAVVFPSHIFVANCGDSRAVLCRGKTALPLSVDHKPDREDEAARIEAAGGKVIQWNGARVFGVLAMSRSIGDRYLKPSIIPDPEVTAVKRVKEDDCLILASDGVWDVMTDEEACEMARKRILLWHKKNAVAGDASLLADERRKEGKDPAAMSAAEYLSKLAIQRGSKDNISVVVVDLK
R69M: 5.74%
C60L: -3.64%
I172P: -7.54%
W41G: -3.44%
Y115I: 1.5%
C72R: -1.32%
V40S: -1.52%
E89D: 10.1%
I105N: 1.81%
R113G: 1.81%
V121P: 9.06%
L138C: 1.64%
A35K: -2.57%
Q7M: 23.3%
I172C: 1.41%
E152K: 2.55%
R98K: 30.9%
T173V: 10.4%
D96I: -7.06%
W41L: 0.7%
A30M: 38%
G148K: -0.62%

Set 2
Target: Prothrombin, mature alpha-thrombin (F2, Homo sapiens, UniProt P00734)
Method: aptamer microarray, sandwich
Form: DNA with 2'F-ANA
Matrix: in vitro
Concentration: 200 nM
Setting: whole 15-mer aptamer, many near background
With: Cy3 exosite-II aptamer, 400 nM
Direction: higher = stronger binding
Quantity: mean fluorescence intensity
Oligonucleotide: GGTTGGTGTGGTTGG
2'F-ANA at 1 2 3 4 8 9 12 15: 437 a.u.
2'F-ANA at 1 4 5 6 7 10 11 12 14: 46.3 a.u.
2'F-ANA at 1 3 4 5 6 8 11 12 13 14: 83.8 a.u.
2'F-ANA at 2 3 5 8 10 13 15: 64.9 a.u.
2'F-ANA at 1 3 4 6 8 10 11 13 14: 51.5 a.u.
2'F-ANA at 1 4 6 8 9 10 12 13: 51.9 a.u.
2'F-ANA at 2 3 4 5 7 9 12 13: 174 a.u.
2'F-ANA at 1 4 6 7 10 11 14: 44.8 a.u.
2'F-ANA at 2 4 5 7 8 11 12 14 15: 49.4 a.u.
2'F-ANA at 1 6 7 13 14 15: 67.8 a.u.
2'F-ANA at 1 2 3 4 5 6 8 9 15: 97.3 a.u.
2'F-ANA at 2 4 6 9 10 13 14: 59.3 a.u.
2'F-ANA at 2 3 4 6 7 10 12 13 14: 160 a.u.
2'F-ANA at 2 7 8 13 14: 168 a.u.
2'F-ANA at 3 11 12 13 14: 698 a.u.
2'F-ANA at 6 7 8 15: 658 a.u.
2'F-ANA at 1 2 5 10 12 15: 48.2 a.u.
2'F-ANA at 1 2 4 6 7 8 12 13 14: 58.6 a.u.
2'F-ANA at 1 2 4 6 7 8 9 11 12 15: 196 a.u.
2'F-ANA at 3 5 6 8 9 12 13: 167 a.u.
2'F-ANA at 5 9 10: 48.2 a.u.
2'F-ANA at 1 2 8 14: 65.3 a.u.
2'F-ANA at 1 2 3 4 14: 148 a.u.

Set 3
Target: RNA binding protein fox-1 homolog 2, RRM domain, GST-SBP tag (RBFOX2, Homo sapiens, UniProt O43251-10, residues 100-194)
Method: RNA Bind-n-Seq
Form: RNA
Matrix: in vitro
Concentration: 365 nM
Setting: natural RNA segment, single round, ends assumed
Relative to: no-protein control
Direction: higher = stronger binding
Quantity: RBNS enrichment (R)
All sequences stand within: GGGAGUUCUACAGUCCGACGAUC … UGGAAUUCUCGGGUGCCAA
Residues (chain): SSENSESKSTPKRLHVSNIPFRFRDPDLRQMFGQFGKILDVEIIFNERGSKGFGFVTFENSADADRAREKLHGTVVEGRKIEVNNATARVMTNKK
UUUUAACCUGUCGUUAAGUGUUGUAACUUCAAAAAACCAAAAUGCUUAUUUUAAUGUGAUUUUUCUAAAACUAUUGAAAAAUUAAUAUUUCUAUAAUCUAUUAAAAAAAA: 0.92
GGUGCCUGCCUUUGUCUGUGAGCUCAUUCCCACUGUUACCCUGAGCUGGCCCAAUGGAGCCUUACAGAACUAAUCAGGACUUGUGGAGACCUCUGCACUGAACUUCCUAU: 0.49
UGCCUUUGAAUGCUAUAGCAUAUUUAGUGUGAGGACUGGGGACCCAGUAAGAUUUAGAGAGCAAUAUAGCAAAACCUGUCAUCUUGGACCUUUUUCACAGCUGAUGCUAU: 2.05
CCAAACAUGUCCAGUCCUCUUCUUCCCUCUGCUGGAACCUUUGGGGACACUCAAGGGUACAGUUUGACACUGAUCUGGUCCAUGAGGCUGCCCAGAGAAAGCACUGCUUC: 0.397
GGAUACAGGAGGUGGCUUCUUCAGGUUCCAUAUCCCCAAUGGUGUGAAUCACAGCUAAGAUCACCUCCACUGAUUCUUGGGCACCUCCCUUAAGACUGUUUUUAAAUGAA: 0.655
GACCAGGUCCUGAAUGCCCUGAAGCAUCACUUCCCAGCAGAGUCCAGAACAGUAAGUACCACUGGACCCCGAAGCUGUGAGUGCUAUCUUGGGCAGACCAAACUCAGGCC: 0.346
GCGCCUCAGUGGGCAUCCUGGCCUCGGCUCCUUCUGCCUGUGUGAGCAUCUGUGCACCCACUCUUCAGCCCCUACCCAUCUGCCACCUUGGUCUGACUUGGCCAUGGGAG: 1.66
UACACAUCCUUGUUCAGUUUUCUUUUGAUGACUAAGGCUCAGUACCAGCGAGCUGUAGGCCAUGUCACAGAACCGAGGCAGAGCAGUGCUUUGAGUAGGACAACAAGGAA: 0.407
GGUUUGAUACCAAUAGGGGAAAAUGUAAAAUGUUCAGUCUUUAUGACAACCUGGCAUAAAGGAGUCAAUUCUUAUGAAAGAGACACAAGGGCCUUAUGGCCAGGGUUUCU: 0.318
UUGUUCACUGCAGUCUUAAGAAAGAGGUAAAAGGCAAGCAAAGGAGAUGAAAUCUGUUCUGGGAAUGUUUCAGCAGCCAAUAAGUGCCCGAGCACACUGCCCCCGGUUGC: 1.06
GCUGCUGCUGCCCGUUCUGUUGGCGGCUGCUGGCCAAGUGUGCACACUUAGCCCUGGUUGAGGUGCAUUGUCUGCUGUCGUCUGUUAAGCAUCUAACCGGAGUGGGAGGG: 0.511
GAUGUUUUUUCUUUCCUUUUCUUUUCAAAUCCUUUAAUGAUAGGAAGACAAGUGAAACUGGGUGCAAGCUAAAAUUUUUAAAUGGUGUGGAGACUCGAAUGAUACCAAGA: 0.585

Set 4
Target: Histone acetyltransferase KAT6A, winged helix 1, GST fusion (KAT6A, Homo sapiens, UniProt Q92794, residues 1-85)
Method: protein binding microarray
Form: double-stranded DNA, one strand shown
Matrix: in vitro
Concentration: not given
Setting: 8-mer, flanks averaged, mean of 2 arrays, mostly near background
Relative to: not given
Direction: higher = stronger binding
Quantity: E-score
Construct (chain): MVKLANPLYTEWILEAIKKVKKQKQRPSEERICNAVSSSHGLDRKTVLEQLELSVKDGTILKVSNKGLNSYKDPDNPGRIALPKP
ACACAGTA: -0.121
CTGTGACA: -0.292
GTGCGCAC: 0.37
CTGTGCAA: -0.172
AGATCGAG: -0.202
GCGTGACA: 0.0871
CTGGCGGA: -0.0235
GGAACGCC: 0.208
CATCCCCA: -0.28
GTTTTGTA: -0.147
GCTAAATA: -0.0599
CGAAACGA: -0.155
TGCTTTAA: -0.104
GTAAGCAA: -0.127
ACCCCGAT: 0.0675
CTGCTGAA: -0.105

Set 5
Target: Transcriptional repressor CTCF (CTCF, Homo sapiens, UniProt P49711, residues 1-727, full length assumed)
UniProt P49711, sequence (whole entry, looked up): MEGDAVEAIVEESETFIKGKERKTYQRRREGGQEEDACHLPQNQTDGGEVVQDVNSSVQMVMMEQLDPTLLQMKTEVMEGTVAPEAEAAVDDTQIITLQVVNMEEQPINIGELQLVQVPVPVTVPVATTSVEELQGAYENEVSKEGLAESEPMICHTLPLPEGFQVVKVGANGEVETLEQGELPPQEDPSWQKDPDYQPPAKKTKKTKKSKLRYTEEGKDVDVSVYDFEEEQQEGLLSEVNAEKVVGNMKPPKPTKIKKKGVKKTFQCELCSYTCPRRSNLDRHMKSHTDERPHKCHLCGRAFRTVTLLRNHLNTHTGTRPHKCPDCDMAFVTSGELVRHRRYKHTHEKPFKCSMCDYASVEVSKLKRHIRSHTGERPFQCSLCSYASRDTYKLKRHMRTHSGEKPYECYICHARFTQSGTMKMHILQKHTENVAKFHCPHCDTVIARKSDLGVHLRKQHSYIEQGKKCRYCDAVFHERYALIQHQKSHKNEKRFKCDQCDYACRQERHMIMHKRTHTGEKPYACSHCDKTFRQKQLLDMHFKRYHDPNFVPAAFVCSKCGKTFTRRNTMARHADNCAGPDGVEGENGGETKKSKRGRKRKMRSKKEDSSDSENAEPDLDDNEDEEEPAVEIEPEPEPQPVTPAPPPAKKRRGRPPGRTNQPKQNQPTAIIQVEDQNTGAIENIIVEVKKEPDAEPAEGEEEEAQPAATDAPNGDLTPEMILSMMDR
Method: protein-binding microarray
Form: double-stranded DNA, one strand shown
Matrix: in vitro
Concentration: not given
Setting: k-mer, scored over probes, only values ≥0.25
Direction: higher = stronger binding
Quantity: E-score
AAAATATT: 0.313
AACTAATA: 0.32
TAAAAATA: 0.328
ATACGCGC: 0.371
AATTAACA: 0.304
AAAAAACG: 0.306
ACCGCGCA: 0.282
CGTAATAA: 0.266
AAATCTAC: 0.26
AAAACTAC: 0.264
AAGAACAA: 0.253
AATAACAA: 0.324
TTGTACAA: 0.265
TATATTAA: 0.326
CGCATATA: 0.268
CATAATTA: 0.354
AGAACAAA: 0.288
AATAATTA: 0.331

Set 6
Target: CCNB3, cyclin fold, Cln2 fusion (human)
Method: yeast growth competition, sequencing
Matrix: yeast
Setting: weak parent motif
Relative to: not given
Direction: higher = stronger binding
Quantity: normalised enrichment score
Starting sequence: E2F1 docking peptide (human); PPVKRRLDLETDH; partner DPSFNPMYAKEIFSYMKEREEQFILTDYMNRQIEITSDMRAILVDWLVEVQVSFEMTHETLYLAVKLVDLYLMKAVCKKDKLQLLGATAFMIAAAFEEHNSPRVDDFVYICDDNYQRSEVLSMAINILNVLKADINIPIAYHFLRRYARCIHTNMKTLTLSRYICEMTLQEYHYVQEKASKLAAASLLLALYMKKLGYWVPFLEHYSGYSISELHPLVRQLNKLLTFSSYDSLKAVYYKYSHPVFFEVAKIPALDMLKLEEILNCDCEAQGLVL
T11E: 0.105
K4V: 0.522
D8Y: 0.0757
V3R: 0.118
P1A: 0.693
T11G: 0.229
R5N: 0.411
H13T: 0.516
R6E: 0.424
L7V: 0.0929
L7G: 0.192
P2E: 0.509
D12C: 0.456
D8C: 0.0408
E10T: 0.56
R5T: -0.141
L7E: -0.148
K4I: 0.476
R5E: 0.267
V3I: 0.0355
R6C: 0.233
D8S: 0.27
D8L: 0.554
R6A: 0.173
L7D: 0.65
